Measurements of several laboratories.

SMILES = C[C@@H](Oc1ccc(S(C)(=O)=O)cc1C(=O)N1C[C@@H]2C[C@]2(c2cc(C(F)(F)F)on2)C1)C(F)(F)F; test system = human; conditions = oral plus intravenous microtracer, dose not given; measurement = subjects with abdominal pain; result = 16.7%
SMILES = CNC(=O)c1ccc(-c2cnc3ncc(Cc4ccc5ncccc5c4)n3n2)cc1F; assay = item: adverse events of grade 1 or higher; test system = healthy human subjects; conditions = oral, 200 mg, inhibition cohort, all-causality, together with: itraconazole 200 mg/day; measurement = subjects with adverse events; result = 70.4%
SMILES = CC(C)(C(=O)N1CCOc2c(C#N)cncc2C1)C(F)F; assay = item: contact dermatitis; test system = human; conditions = oral, 20 mg once daily, 14 days, multiple ascending dose; measurement = subjects with adverse event; result = 0%
SMILES = CC(C)n1c(Nc2cccnc2)nc2cnc(Nc3ccc(N4CCN(C)CC4)cc3)nc21; assay = item: metabolism and nutrition disorders (SOC); test system = healthy human, male; conditions = oral, dose not given, CTCAE grade 1-3; measurement = subjects with TEAE; result = 16.7%
SMILES = CN1CCN(c2cccc3c2CCN(C(=O)/C=C/c2c(-n4cnnn4)ccc(Cl)c2F)[C@@H]3C(=O)Nc2ccc(C(=O)O)cc2)C(=O)C1; test system = healthy human subjects; conditions = intravenous infusion, 1 mg/h, 5 days; measurement = subjects with any adverse event; result = 22.2%
SMILES = C[C@@H](c1nc(-c2ccc(C#N)cc2)cs1)[C@](O)(Cn1cncn1)c1cc(F)ccc1F; assay = nervous system disorders; test system = human; conditions = oral, dose not given, together with: ethinyl estradiol/norethindrone; measurement = subjects with adverse event; result = 8.7%
SMILES = Cc1cc(-c2nccc3c2ccn3CC(=O)Nc2ccc(-c3cnccn3)cn2)ccn1; test system = human; conditions = 5 mg once daily, multiple ascending dose; measurement = subjects with Dysgeusia adverse event; result = 0%
SMILES = C[C@H]1CN(C(=O)CC#N)[C@]12CCN(c1ncnc3[nH]ccc13)C2; test system = healthy human; conditions = oral, 12 mg single; measurement = subjects with Nausea; result = 0%

A few entries again:
SMILES = Cc1cc(-c2nccc3c2ccn3CC(=O)Nc2ccc(-c3cnccn3)cn2)ccn1; test system = human; conditions = 5 mg once daily, multiple ascending dose; measurement = subjects with Dysgeusia adverse event; result = 0%
